# Measurements from different studies.
# Sequences of proteins named here, by UniProt entry; tags and fusion partners are left off. A line that says so, or that is headed by a name, gives the form on record, which may keep a tag or linker. Residues count along the entry.
# UniProt P08510, 1-655 with tags or gaps DEL6-46: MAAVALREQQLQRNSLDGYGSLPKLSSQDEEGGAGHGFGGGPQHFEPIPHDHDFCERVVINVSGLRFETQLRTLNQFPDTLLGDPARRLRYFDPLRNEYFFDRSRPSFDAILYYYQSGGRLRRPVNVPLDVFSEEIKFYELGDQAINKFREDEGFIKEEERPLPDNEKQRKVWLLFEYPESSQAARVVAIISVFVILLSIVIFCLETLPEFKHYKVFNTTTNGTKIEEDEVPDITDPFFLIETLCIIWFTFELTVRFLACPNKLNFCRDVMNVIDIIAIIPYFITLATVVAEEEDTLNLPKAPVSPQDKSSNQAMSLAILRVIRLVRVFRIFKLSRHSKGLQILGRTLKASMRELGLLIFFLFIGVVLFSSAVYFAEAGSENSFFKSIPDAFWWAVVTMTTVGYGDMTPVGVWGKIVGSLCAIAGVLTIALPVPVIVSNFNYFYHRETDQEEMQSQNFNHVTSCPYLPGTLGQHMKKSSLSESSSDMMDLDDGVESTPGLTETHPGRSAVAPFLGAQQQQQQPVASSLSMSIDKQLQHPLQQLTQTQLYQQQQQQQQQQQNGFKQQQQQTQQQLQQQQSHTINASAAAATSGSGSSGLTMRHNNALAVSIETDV
# UniProt P37136, 32-614 limits assumed: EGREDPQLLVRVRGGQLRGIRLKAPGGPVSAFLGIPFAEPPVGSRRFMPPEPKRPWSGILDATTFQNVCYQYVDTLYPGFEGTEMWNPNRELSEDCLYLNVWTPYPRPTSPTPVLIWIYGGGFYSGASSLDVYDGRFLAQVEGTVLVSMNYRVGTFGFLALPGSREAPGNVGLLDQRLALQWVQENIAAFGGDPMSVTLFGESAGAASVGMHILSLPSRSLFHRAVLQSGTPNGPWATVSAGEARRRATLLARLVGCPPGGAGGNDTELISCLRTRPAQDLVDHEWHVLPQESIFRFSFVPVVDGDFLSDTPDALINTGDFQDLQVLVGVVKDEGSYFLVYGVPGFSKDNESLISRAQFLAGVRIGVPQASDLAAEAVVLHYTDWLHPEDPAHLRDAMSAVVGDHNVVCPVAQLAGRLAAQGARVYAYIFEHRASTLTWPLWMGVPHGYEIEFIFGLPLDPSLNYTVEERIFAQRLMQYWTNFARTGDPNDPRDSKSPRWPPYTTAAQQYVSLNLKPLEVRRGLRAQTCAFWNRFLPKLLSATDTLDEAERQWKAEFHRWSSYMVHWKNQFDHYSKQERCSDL
# Compare with care: the assays were run in different laboratories. Values joined by “and” are separate records of one study, mostly repeats; a detail may differ. ± gives the spread as reported.
Structure (SMILES),tested on,assay,system,setting,how to read,endpoint,value
Cc1ccc(S(=O)(=O)Nc2cccc(C(=O)NC3CCN(c4ncnc5[nH]cnc45)CC3)c2)cc1Cl,SARS-CoV-2,viral infection,Wuhan-Hu-1,,,IC50,2320 nM
O=C(c1ccncc1)N1CCCC2(C1)Nc1ccccc1N=C2NC1CCCC1 (stereo not shown),HepG2,"cell viability, CellTiter-Glo",,72 h,,CC50,70000 nM
CC#Cc1ccc2c(=O)[nH]nc(Cc3ccc(F)c(C(=O)N4CCN(c5ccc(C#N)cn5)CC4)c3)c2c1,CT26,"western blot, refers to: pSTAT1 (Tyr701)",,300 nM,,onset time,4 h
C[C@@H](O)[C@@H]1NC(=O)[C@@H]2CSSC[C@H](N)C(=O)N[C@@H](CCCCN)C(=O)N[C@@H](CCCNC(=N)N)C(=O)N[C@@H](CCCCN)C(=O)NCC(=O)N[C@@H](CO)C(=O)N[C@@H](CO)C(=O)N[C@H]3CSSC[C@H](NC(=O)[C@H](CO)NC(=O)CNC1=O)C(=O)N[C@@H](CCCNC(=N)N)C(=O)N[C@@H](CC(N)=O)C(=O)NCC(=O)N[C@@H](CCCCN)C(=O)N[C@H](C(N)=O)CSSC[C@H](NC(=O)[C@H](CC(=O)O)NC(=O)[C@H](Cc1ccc(O)cc1)NC(=O)[C@H](CO)NC(=O)[C@H]([C@@H](C)O)NC(=O)[C@H](CCCNC(=N)N)NC(=O)[C@H](CCCNC(=N)N)NC3=O)C(=O)N2,,,Kunming mice,"intracerebroventricular, 9 µg/kg, 0.5 h",,rotarod time,17 ± 19 s
O=C(O)CC1Sc2nnc(-c3cccs3)n2N=C1c1ccc(Cl)cc1 (stereo not shown),UGM of Corynebacterium diphtheriae,"enzyme activity, inhibitor",,,,Ki,77000 ± 37000 nM
O=C(NC1CCN(c2ncnc3[nH]cnc23)CC1)c1cccc(NS(=O)(=O)c2ccc([N+](=O)[O-])cc2)c1,SARS-CoV-2,,Wuhan-Hu-1,0.823 µM,reference: untreated infected cells,relative infection,57.7%
Cc1cc(C(=O)N[C@@H](Cc2cccc3ccccc23)C(=O)N[C@@H](CC(C)C)C(=O)N[C@H](C=O)C[C@@H]2CCCNC2=O)no1,Enterovirus A71,"viral replication, RT-qPCR",RD,three days,,EC90,20 ± 10 nM
CC[C@H](C)[C@H](NC(=O)[C@H](C)NC(=O)[C@H](CCC(=O)O)NC(=O)[C@H](CCC(=O)O)NC(=O)[C@H](CC(C)C)NC(=O)[C@H](CCCCN)NC(=O)[C@H](CCCCN)NC(=O)[C@H](CCSC)NC(=O)[C@H](CCC(=O)O)NC(=O)[C@H](Cc1ccc(O)cc1)NC(=O)[C@H](CCC(=O)O)NC(=O)[C@H](CC(C)C)NC(=O)[C@H](CC(=O)O)NC(=O)[C@H](CC(C)C)NC(=O)[C@H](Cc1ccccc1)NC(=O)[C@@H](NC(=O)[C@@H](NC(=O)[C@H](CC(N)=O)NC(=O)[C@@H](NC(=O)[C@H](CCC(N)=O)NC(=O)[C@H](CC(=O)O)NC(=O)[C@H](CC(C)C)NC(=O)[C@@H](N)CO)[C@@H](C)CC)C(C)C)[C@@H](C)O)C(=O)N[C@@H](CCCCN)C(=O)N[C@@H](CCCCN)C(=O)N[C@@H](CC(C)C)C(=O)N[C@@H](CCC(=O)O)C(=O)N[C@@H](CCC(=O)O)C(=O)N[C@@H](CO)C(=O)N[C@@H](Cc1ccc(O)cc1)C(=O)N[C@H](C(=O)N[C@@H](CC(=O)O)C(=O)N[C@@H](CC(C)C)C(=O)N[C@@H](CCCCN)C(=O)N[C@@H](CCC(=O)O)C(=O)N[C@@H](CC(C)C)C(=O)O)[C@@H](C)CC,SARS-CoV-2 Beta pseudovirus,"pseudovirus infection, inhibitor, luciferase",Caco-2,"24 h, dual mutations",,IC50,1000 nM
CS(=O)(=O)Cc1onc(-c2cccc(Cl)c2)c1-c1ccnc(N[C@@H]2CCN(C(=O)c3nccs3)C2)n1,Plasmodium falciparum,parasite growth,3D7 A10,"72 h, asexual blood stage",,EC50,5280 ± 400 nM
Cc1ccc(S(=O)(=O)Nc2cccc(C(=O)NC3CCN(c4ncnc5[nH]cnc45)CC3)c2)cc1,monkeypox virus E1/E12,,,0.01221 µM,,inhibition,9.21% and 15.9%
CC[C@H](C)[C@H](NC(=O)[C@H](C)NC(=O)[C@H](CCC(=O)O)NC(=O)[C@H](CCC(=O)O)NC(=O)[C@H](CC(C)C)NC(=O)[C@H](CCCCN)NC(=O)[C@H](CCCCN)NC(=O)[C@H](CCSC)NC(=O)[C@H](CCC(=O)O)NC(=O)[C@H](Cc1ccc(O)cc1)NC(=O)[C@H](CCC(=O)O)NC(=O)[C@H](CC(C)C)NC(=O)[C@H](CC(=O)O)NC(=O)[C@H](CC(C)C)NC(=O)[C@H](Cc1ccccc1)NC(=O)[C@@H](NC(=O)[C@@H](NC(=O)[C@H](CC(N)=O)NC(=O)[C@@H](NC(=O)[C@H](CCC(N)=O)NC(=O)[C@H](CC(=O)O)NC(=O)[C@H](CC(C)C)NC(=O)[C@H](CO)NC(=O)[C@H](CC(C)C)NC(=O)[C@H](CC(=O)O)NC(=O)[C@@H]1CCCN1C(=O)[C@H](C)N)[C@@H](C)CC)C(C)C)[C@@H](C)O)C(=O)N[C@@H](CCCCN)C(=O)N[C@@H](CCCCN)C(=O)N[C@@H](CC(C)C)C(=O)N[C@@H](CCC(=O)O)C(=O)N[C@@H](CCC(=O)O)C(=O)N[C@@H](CO)C(=O)N[C@@H](Cc1ccc(O)cc1)C(=O)N[C@H](C(=O)N[C@@H](CC(=O)O)C(=O)N[C@@H](CC(C)C)C(=O)N[C@@H](CCCCN)C(=O)N[C@@H](CCC(=O)O)C(=O)N[C@@H](CC(C)C)C(=O)O)[C@@H](C)CC,SARS-CoV-2 JN.1 pseudovirus,"pseudovirus infection, inhibitor, luciferase",Caco-2,24 h,,IC50,118 nM
CC[C@H](C)[C@@H]1NC(=O)[C@H](CCCNC(=N)N)NC(=O)[C@@H](N)CSSC[C@@H]2NC(=O)[C@@H]3CSSC[C@@H](C(=O)N[C@H](C(=O)O)C(C)C)NC(=O)[C@H](CCCCN)NC(=O)[C@H](CC(N)=O)NC(=O)[C@H](Cc4ccccc4)NC(=O)[C@H](CCCNC(=N)N)NC(=O)[C@H](CC(N)=O)NC(=O)[C@H](CSSC[C@H](NC(=O)[C@H](CCCCN)NC(=O)[C@H](CCC(N)=O)NC(=O)[C@H](CC(N)=O)NC(=O)[C@@H]4C[C@@H](O)CN4C1=O)C(=O)N[C@@H](Cc1ccccc1)C(=O)N[C@@H](CCC(N)=O)C(=O)N[C@@H](Cc1c[nH]cn1)C(=O)N[C@@H](CC(C)C)C(=O)N[C@@H](CC(=O)O)C(=O)N[C@@H](CC(=O)O)C(=O)N3)NC(=O)[C@H](CCCCN)NC(=O)[C@H](CCCNC(=N)N)NC(=O)[C@H](CO)NC2=O,"Sh (Drosophila melanogaster, UniProt P08510, del6-46)","potassium current, outside-out patch clamp",,"pulse application, zero voltage, internal K 15, added: 1 mM TEA",,Kd,250 ± 26 nM
CC(C)[C@H]1CC[C@@H](N2CCC3(CC2)C(=O)NCN3c2ccccc2)CC1,,"twitch contraction, electrical stimulation","NOP(+/+) mice, mouse vas deferens",,,Emax,98 ± 2 % inhibition
CC[C@H](C)[C@H](NC(=O)[C@H](C)NC(=O)[C@H](CCC(=O)O)NC(=O)[C@H](CCC(=O)O)NC(=O)[C@H](CC(C)C)NC(=O)[C@H](CCCCN)NC(=O)[C@H](CCCCN)NC(=O)[C@H](CCSC)NC(=O)[C@H](CCC(=O)O)NC(=O)[C@H](Cc1ccc(O)cc1)NC(=O)[C@H](CCC(=O)O)NC(=O)[C@H](CC(C)C)NC(=O)[C@H](CC(=O)O)NC(=O)[C@H](CC(C)C)NC(=O)[C@H](Cc1ccccc1)NC(=O)[C@@H](NC(=O)[C@@H](NC(=O)[C@H](CC(N)=O)NC(=O)[C@@H](NC(=O)[C@H](CCC(N)=O)NC(=O)[C@H](CC(=O)O)NC(=O)[C@H](CC(C)C)NC(=O)[C@@H](N)CO)[C@@H](C)CC)C(C)C)[C@@H](C)O)C(=O)N[C@@H](CCCCN)C(=O)N[C@@H](CCCCN)C(=O)N[C@@H](CC(C)C)C(=O)N[C@@H](CCC(=O)O)C(=O)N[C@@H](CCC(=O)O)C(=O)N[C@@H](C)C(=O)N[C@@H](Cc1ccc(O)cc1)C(=O)N[C@H](C(=O)N[C@@H](CC(=O)O)C(=O)N[C@@H](CC(C)C)C(=O)N[C@@H](CCCCN)C(=O)N[C@@H](CCC(=O)O)C(=O)N[C@@H](CC(C)C)C(=O)O)[C@@H](C)CC,SARS-CoV-2 Gamma pseudovirus,"pseudovirus infection, inhibitor, luciferase",Caco-2,24 h,,IC50,520 nM
Cc1ccccc1S(=O)(=O)Nc1cccc(C(=O)NC2CCN(c3ncnc4[nH]cnc34)CC2)c1,SARS-CoV-2,,Wuhan-Hu-1,22.22 µM,reference: untreated infected cells,relative infection,31.8%
CC[C@H](C)[C@H](NC(=O)[C@H](C)NC(=O)[C@H](CCC(=O)O)NC(=O)[C@H](CCC(=O)O)NC(=O)[C@H](CC(C)C)NC(=O)[C@H](CCCCN)NC(=O)[C@H](CCCCN)NC(=O)[C@H](CCSC)NC(=O)[C@H](CCC(=O)O)NC(=O)[C@H](Cc1ccc(O)cc1)NC(=O)[C@H](CCC(=O)O)NC(=O)[C@H](CC(C)C)NC(=O)[C@H](CC(=O)O)NC(=O)[C@H](CC(C)C)NC(=O)[C@H](Cc1ccccc1)NC(=O)[C@H](Cc1ccccc1)NC(=O)[C@@H](NC(=O)[C@H](CC(N)=O)NC(=O)[C@@H](NC(=O)[C@H](CCC(N)=O)NC(=O)[C@H](CC(=O)O)NC(=O)[C@H](CC(C)C)NC(=O)[C@@H](N)CO)[C@@H](C)CC)C(C)C)C(=O)N[C@@H](CCCCN)C(=O)N[C@@H](CCCCN)C(=O)N[C@@H](CC(C)C)C(=O)N[C@@H](CCC(=O)O)C(=O)N[C@@H](CCC(=O)O)C(=O)N[C@H](C(=O)N[C@@H](Cc1ccc(O)cc1)C(=O)N[C@H](C(=O)N[C@@H](CC(=O)O)C(=O)N[C@@H](CC(C)C)C(=O)N[C@@H](CCCCN)C(=O)N[C@@H](CCC(=O)O)C(=O)N[C@@H](CC(C)C)C(=O)O)[C@@H](C)CC)[C@@H](C)O,SARS-CoV-2 Beta pseudovirus,"pseudovirus infection, inhibitor, luciferase",Caco-2,"24 h, dual mutations",,IC50,614 nM
CCOP(=O)(OCC)ON1C(=O)c2cccc3cccc(c23)C1=O,"Ache (Rattus norvegicus, UniProt P37136)","enzyme activity, inhibitor, discontinuous Ellman","rat, postnatal day 1, rat skeletal muscle homogenate","15 min, 37 °C",,IC50,20 nM
CC[C@H](C)[C@H](NC(=O)[C@H](C)NC(=O)[C@H](CCC(=O)O)NC(=O)[C@H](CCC(=O)O)NC(=O)[C@H](CC(C)C)NC(=O)[C@H](CCCCN)NC(=O)[C@H](CCCCN)NC(=O)[C@H](CCSC)NC(=O)[C@H](CCC(=O)O)NC(=O)[C@H](Cc1ccc(O)cc1)NC(=O)[C@H](CCC(=O)O)NC(=O)[C@H](CC(C)C)NC(=O)[C@H](CC(=O)O)NC(=O)[C@H](CC(C)C)NC(=O)[C@H](Cc1ccccc1)NC(=O)[C@@H](NC(=O)[C@@H](NC(=O)[C@H](CC(N)=O)NC(=O)[C@@H](NC(=O)[C@H](CCC(N)=O)NC(=O)[C@H](CC(=O)O)NC(=O)[C@H](CC(C)C)NC(=O)[C@@H](N)CO)[C@@H](C)CC)C(C)C)[C@@H](C)O)C(=O)N[C@@H](CCCCN)C(=O)N[C@@H](CCCCN)C(=O)N[C@@H](CC(C)C)C(=O)N[C@@H](CCC(=O)O)C(=O)N[C@@H](CCC(=O)O)C(=O)N[C@H](C(=O)N[C@@H](Cc1ccc(O)cc1)C(=O)N[C@H](C(=O)N[C@@H](CC(=O)O)C(=O)N[C@@H](CC(C)C)C(=O)N[C@@H](CCCCN)C(=O)N[C@@H](CCC(=O)O)C(=O)N[C@@H](CC(C)C)C(=O)O)[C@@H](C)CC)[C@@H](C)O,SARS-CoV-2 XBB.1.5 pseudovirus,"pseudovirus infection, inhibitor, luciferase",Caco-2,24 h,,IC50,501 nM
O=C(Nc1cccc(Cl)c1)Nc1nonc1NC(=O)Nc1cccc(Cl)c1,SARS-CoV-2 nsp5 C145A,"reporter gene, cell-based secondary screen",,,,luciferase signal,107 ± 3%

# Repeated from above:
Structure (SMILES),tested on,assay,system,setting,how to read,endpoint,value
CC[C@H](C)[C@H](NC(=O)[C@H](C)NC(=O)[C@H](CCC(=O)O)NC(=O)[C@H](CCC(=O)O)NC(=O)[C@H](CC(C)C)NC(=O)[C@H](CCCCN)NC(=O)[C@H](CCCCN)NC(=O)[C@H](CCSC)NC(=O)[C@H](CCC(=O)O)NC(=O)[C@H](Cc1ccc(O)cc1)NC(=O)[C@H](CCC(=O)O)NC(=O)[C@H](CC(C)C)NC(=O)[C@H](CC(=O)O)NC(=O)[C@H](CC(C)C)NC(=O)[C@H](Cc1ccccc1)NC(=O)[C@@H](NC(=O)[C@@H](NC(=O)[C@H](CC(N)=O)NC(=O)[C@@H](NC(=O)[C@H](CCC(N)=O)NC(=O)[C@H](CC(=O)O)NC(=O)[C@H](CC(C)C)NC(=O)[C@@H](N)CO)[C@@H](C)CC)C(C)C)[C@@H](C)O)C(=O)N[C@@H](CCCCN)C(=O)N[C@@H](CCCCN)C(=O)N[C@@H](CC(C)C)C(=O)N[C@@H](CCC(=O)O)C(=O)N[C@@H](CCC(=O)O)C(=O)N[C@@H](C)C(=O)N[C@@H](Cc1ccc(O)cc1)C(=O)N[C@H](C(=O)N[C@@H](CC(=O)O)C(=O)N[C@@H](CC(C)C)C(=O)N[C@@H](CCCCN)C(=O)N[C@@H](CCC(=O)O)C(=O)N[C@@H](CC(C)C)C(=O)O)[C@@H](C)CC,SARS-CoV-2 Gamma pseudovirus,"pseudovirus infection, inhibitor, luciferase",Caco-2,24 h,,IC50,520 nM
